Measured values gathered from unrelated publications.
A part holds a random share of what one study measured. Values joined by “and” are separate records of one study, mostly repeats; a detail may differ.
Sequence of UniProt Q56UN5 (whole entry, looked up): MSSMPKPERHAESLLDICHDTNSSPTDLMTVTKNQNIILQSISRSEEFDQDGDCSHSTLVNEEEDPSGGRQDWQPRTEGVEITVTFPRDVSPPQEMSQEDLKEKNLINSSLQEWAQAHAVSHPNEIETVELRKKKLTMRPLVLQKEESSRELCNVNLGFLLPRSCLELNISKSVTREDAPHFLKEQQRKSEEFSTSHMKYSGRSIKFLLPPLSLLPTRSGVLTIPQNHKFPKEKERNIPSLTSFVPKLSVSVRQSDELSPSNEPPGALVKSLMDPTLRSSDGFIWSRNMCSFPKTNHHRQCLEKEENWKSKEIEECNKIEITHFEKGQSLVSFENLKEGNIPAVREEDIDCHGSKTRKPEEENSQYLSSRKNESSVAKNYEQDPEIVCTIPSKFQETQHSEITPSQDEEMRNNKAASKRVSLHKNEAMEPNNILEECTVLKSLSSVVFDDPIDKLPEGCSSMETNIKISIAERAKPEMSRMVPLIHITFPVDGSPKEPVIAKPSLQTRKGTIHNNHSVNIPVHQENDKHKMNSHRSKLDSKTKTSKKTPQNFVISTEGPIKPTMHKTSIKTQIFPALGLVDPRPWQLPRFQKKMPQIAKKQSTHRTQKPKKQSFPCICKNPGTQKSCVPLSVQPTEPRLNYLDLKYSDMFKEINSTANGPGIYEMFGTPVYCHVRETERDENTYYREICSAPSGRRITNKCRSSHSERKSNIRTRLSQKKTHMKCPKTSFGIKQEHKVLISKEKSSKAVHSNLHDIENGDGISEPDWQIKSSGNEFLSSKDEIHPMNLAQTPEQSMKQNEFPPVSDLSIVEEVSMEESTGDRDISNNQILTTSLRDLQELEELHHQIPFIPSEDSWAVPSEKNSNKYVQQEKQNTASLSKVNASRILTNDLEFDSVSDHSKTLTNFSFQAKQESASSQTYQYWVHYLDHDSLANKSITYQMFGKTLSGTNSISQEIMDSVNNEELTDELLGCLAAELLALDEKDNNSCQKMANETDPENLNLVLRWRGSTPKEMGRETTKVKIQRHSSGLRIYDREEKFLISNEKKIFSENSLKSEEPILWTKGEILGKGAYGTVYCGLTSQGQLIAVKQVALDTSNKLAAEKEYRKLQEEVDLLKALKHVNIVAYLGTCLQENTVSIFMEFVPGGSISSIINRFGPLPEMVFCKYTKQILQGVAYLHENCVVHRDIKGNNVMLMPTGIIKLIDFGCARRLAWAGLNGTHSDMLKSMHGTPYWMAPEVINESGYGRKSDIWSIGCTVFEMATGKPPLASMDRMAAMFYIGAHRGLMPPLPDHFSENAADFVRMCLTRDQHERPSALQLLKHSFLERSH
Sequence of UniProt Q9UEE5 (whole entry, looked up): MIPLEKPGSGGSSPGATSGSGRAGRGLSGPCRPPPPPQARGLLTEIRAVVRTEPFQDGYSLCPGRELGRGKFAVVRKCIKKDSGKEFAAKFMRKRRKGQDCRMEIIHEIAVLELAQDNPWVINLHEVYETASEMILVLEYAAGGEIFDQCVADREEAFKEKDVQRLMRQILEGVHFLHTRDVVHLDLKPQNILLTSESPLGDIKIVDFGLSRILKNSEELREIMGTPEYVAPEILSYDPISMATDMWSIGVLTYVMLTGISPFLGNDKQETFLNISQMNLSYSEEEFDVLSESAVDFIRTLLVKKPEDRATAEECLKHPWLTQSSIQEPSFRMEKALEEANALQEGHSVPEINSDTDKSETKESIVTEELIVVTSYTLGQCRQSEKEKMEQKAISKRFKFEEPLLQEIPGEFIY
Sequence of UniProt P11229 (whole entry, looked up): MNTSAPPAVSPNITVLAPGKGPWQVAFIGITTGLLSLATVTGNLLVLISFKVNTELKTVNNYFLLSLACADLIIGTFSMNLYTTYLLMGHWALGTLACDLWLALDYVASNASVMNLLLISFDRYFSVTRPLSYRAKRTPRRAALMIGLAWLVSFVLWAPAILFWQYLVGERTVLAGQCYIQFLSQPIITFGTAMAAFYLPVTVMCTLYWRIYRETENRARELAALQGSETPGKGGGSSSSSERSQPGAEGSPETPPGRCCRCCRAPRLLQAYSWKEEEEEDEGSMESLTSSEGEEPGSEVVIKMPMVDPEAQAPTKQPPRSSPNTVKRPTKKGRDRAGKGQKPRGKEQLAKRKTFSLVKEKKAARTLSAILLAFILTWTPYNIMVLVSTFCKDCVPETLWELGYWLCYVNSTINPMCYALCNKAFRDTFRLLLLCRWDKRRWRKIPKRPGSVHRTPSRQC

Study 1
SMILES: O=C(Nc1cnn(-c2csc(C(=O)NC3COC3)c2)c1)Nc1c(F)cccc1Cl
Read-out: enzyme activity
Tested at: 5 µM
Baseline: untreated control
| target | remaining activity |
| --- | --- |
| CHEK1 (Homo sapiens, UniProt O14757) | 138% |
| Insulin receptor (INSR, Homo sapiens, UniProt P06213) | 97.9% |
| MAP3K19 (Homo sapiens, UniProt Q56UN5) | 126% and 97.3% |
| Myosin-IIIa (MYO3A, Homo sapiens, UniProt Q8NEV4) | 75.8% |
| EPHB3 (Homo sapiens, UniProt P54753) | 95.9% |
| TBK1 (Homo sapiens, UniProt Q9UHD2) | 98.5% |
| FLT4 (Homo sapiens, UniProt P35916) | 86.6% |
| STK17A (Homo sapiens, UniProt Q9UEE5) | 89.4% |

Study 2
SMILES: CC(=O)N[C@@H](Cc1c[nH]c2ccccc12)C(=O)N[C@@H](CCC(=O)C=[N+]=[N-])C(=O)OC(C)C
Technique: UPLC-MS/MS metabolomics
Host: C57BL/6 CES1-/- mice, EL4 tumour
Medium: EL4 tumour
Route: subcutaneous
Dose: 0.3 mg/kg/day DON equivalent
Time: 5 days
Setting: normalised to tissue mass
| refers to | peak intensity |
| --- | --- |
| N6-methyllysine | 2.26e+07 a.u. and 2.35e+07 a.u. and 3.72e+07 a.u. and 2.08e+07 a.u. and 3.64e+07 a.u. and 3.87e+07 a.u. |
| S-methylglutathione | 187000 a.u. and 573000 a.u. and 124000 a.u. and 802000 a.u. and 719000 a.u. and 721000 a.u. |
| S-lactoylglutathione | 539000 a.u. and 622000 a.u. and 924000 a.u. and 1.35e+06 a.u. |
| NAD+ | 188000 a.u. and 173000 a.u. and 200000 a.u. and 54300 a.u. and 193000 a.u. and 110000 a.u. |
| UDP-N-acetylglucosamine/galactosamine | 2.45e+07 a.u. and 2.92e+07 a.u. and 3.05e+07 a.u. and 9.81e+06 a.u. and 2.09e+07 a.u. and 9.56e+06 a.u. |
| N2-acetyllysine | 355000 a.u. and 178000 a.u. and 232000 a.u. and 195000 a.u. |
| acetylphosphate | 5.78e+06 a.u. and 4.75e+06 a.u. and 4.12e+06 a.u. and 5.89e+06 a.u. and 6.88e+06 a.u. and 6.14e+06 a.u. |

Study 3
Target: DNA polymerase theta, ATPase domain (POLQ, Homo sapiens, UniProt O75417)
Sequence of UniProt O75417 (whole entry, unmodified, looked up): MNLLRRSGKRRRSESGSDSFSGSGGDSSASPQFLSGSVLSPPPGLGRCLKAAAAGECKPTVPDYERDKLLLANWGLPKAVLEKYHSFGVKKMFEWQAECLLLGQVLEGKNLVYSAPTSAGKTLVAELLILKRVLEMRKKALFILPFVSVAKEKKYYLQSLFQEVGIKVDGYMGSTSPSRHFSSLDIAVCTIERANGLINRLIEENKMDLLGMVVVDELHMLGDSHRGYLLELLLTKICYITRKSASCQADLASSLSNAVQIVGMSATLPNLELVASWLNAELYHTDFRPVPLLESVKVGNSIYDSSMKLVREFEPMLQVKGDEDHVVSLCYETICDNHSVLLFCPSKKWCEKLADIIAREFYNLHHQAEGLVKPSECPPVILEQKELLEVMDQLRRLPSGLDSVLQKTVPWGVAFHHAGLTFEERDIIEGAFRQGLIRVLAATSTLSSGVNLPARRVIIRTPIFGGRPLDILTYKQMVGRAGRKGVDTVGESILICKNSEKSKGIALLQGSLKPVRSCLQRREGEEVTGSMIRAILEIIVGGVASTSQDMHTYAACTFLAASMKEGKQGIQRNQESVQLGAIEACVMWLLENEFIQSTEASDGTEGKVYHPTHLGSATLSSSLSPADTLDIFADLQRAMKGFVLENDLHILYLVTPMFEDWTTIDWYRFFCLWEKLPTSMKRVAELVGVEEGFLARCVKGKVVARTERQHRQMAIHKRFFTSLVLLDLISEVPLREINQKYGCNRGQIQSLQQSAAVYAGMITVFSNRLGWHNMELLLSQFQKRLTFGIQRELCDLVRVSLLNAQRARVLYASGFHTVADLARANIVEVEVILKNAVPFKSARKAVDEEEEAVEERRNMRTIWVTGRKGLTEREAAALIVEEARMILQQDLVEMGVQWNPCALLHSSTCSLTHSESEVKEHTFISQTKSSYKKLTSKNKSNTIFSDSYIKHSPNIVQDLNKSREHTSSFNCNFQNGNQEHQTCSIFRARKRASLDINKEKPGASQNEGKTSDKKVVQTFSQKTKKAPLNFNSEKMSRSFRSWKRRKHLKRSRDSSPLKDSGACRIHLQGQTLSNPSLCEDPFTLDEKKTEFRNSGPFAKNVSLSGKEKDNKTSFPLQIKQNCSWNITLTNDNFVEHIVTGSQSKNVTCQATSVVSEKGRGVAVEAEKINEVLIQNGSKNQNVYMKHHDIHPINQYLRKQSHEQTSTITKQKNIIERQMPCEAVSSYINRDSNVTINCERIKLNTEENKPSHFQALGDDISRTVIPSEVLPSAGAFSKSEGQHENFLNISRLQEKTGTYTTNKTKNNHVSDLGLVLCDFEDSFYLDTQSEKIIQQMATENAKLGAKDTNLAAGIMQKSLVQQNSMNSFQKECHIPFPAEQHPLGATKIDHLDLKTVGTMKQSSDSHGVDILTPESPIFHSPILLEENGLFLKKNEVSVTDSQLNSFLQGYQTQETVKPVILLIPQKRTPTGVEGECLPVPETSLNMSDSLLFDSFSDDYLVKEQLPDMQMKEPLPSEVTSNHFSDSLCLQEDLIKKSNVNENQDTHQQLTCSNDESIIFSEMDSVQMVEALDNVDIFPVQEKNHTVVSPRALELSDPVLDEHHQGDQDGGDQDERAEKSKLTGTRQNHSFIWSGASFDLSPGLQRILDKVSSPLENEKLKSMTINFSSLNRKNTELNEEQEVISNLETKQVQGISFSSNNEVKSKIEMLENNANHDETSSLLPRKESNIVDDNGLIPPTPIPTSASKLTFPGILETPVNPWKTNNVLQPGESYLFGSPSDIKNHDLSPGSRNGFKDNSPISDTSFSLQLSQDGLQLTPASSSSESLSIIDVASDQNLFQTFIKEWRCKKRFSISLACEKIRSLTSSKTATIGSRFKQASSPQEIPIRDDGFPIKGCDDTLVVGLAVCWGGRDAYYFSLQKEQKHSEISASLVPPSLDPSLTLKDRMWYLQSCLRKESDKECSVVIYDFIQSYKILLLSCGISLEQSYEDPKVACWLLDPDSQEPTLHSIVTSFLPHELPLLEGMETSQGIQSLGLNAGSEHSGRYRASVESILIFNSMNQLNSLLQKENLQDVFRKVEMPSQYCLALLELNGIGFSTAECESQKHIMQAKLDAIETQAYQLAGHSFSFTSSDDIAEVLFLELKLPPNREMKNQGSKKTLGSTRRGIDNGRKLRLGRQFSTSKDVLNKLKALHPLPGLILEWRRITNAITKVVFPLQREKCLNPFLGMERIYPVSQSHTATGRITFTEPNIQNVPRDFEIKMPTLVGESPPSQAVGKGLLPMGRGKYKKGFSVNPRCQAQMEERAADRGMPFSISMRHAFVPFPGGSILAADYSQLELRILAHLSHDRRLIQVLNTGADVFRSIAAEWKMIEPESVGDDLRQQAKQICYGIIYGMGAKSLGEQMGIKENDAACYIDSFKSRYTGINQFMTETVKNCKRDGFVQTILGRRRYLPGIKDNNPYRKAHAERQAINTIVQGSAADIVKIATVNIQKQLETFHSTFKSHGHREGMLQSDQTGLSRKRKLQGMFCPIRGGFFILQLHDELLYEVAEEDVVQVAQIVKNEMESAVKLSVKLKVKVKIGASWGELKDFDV
Read-out: enzyme activity
Action: inhibitor
Tested at: 77 µM
Baseline: untreated
| SMILES | remaining activity |
| --- | --- |
| COC(=O)C1=CO[C@@H](C)[C@H]2CN3CCc4c([nH]c5ccccc45)[C@@H]3C[C@H]12 | 101% |
| COc1ccc(-c2oc3c(CC=C(C)C)c(O[C@@H]4O[C@H](CO)[C@@H](O)[C@H](O)[C@H]4O)cc(O)c3c(=O)c2O[C@@H]2O[C@@H](C)[C@H](O)[C@@H](O)[C@H]2O)cc1 | 94.6% |
| NNC(=O)c1ccncc1 | 92.2% and 96.1% |
| N=C(N)c1ccccc1 | 99.5% |
| O=C(c1ccc(OCCCc2c[nH]cn2)cc1)C1CC1 | 101% |
| Cn1cc(-c2cnn3c(N)c(Br)c([C@@H]4CCCNC4)nc23)cn1 | 94.9% |
| O=C1NC(=O)c2c1c1c3ccccc3[nH]c1c1[nH]c3cc(Br)ccc3c21 | 120% |
| O=C(O)c1cc2cccc([N+](=O)[O-])c2[nH]1 | 95.5% |

Mixed results
| Structure (SMILES) | target | read-out | technique | tested at | quantity | result |
| --- | --- | --- | --- | --- | --- | --- |
| COc1ccc2c(c1)O[C@@H](c1ccc(OC)c(OC)c1)C[C@H]2NC(=O)C1(c2ccc3c(c2)OC(F)(F)O3)CC1 | Muscarinic acetylcholine receptor M1 (CHRM1, Homo sapiens, UniProt P11229) | binding | radioligand binding | 10 µM | inhibition | -17.4% |
